Experimental data pooled from the literature.
Protocols differ between the studies behind these lines. ± gives the spread as reported.

C[n+]1ccc(/C=N/NC(=O)C(=O)N/N=C/c2cc[n+](C)c3ccccc23)c2ccccc21 has a ΔTm of 3.5 ± 0.3 °C (MYC parallel G4 DNA; FRET melting; 1 µM, DNA 0.2 µM, together with: duplex DNA competitor 10 µM).
Nc1ncc(-c2cc(-c3cnn(CC(F)(F)F)c3)ncc2F)nc1C(=O)NC1CNCC(F)C1 (stereo not shown) gave a remaining binding of 73% (ACVR1B; KINOMEscan; 1 µM; relative to: DMSO control).
O=C(N/N=C/c1ccc2c(ccc[n+]2Cc2ccccc2)c1)c1cc(C(=O)N/N=C/c2ccc3c(ccc[n+]3Cc3ccccc3)c2)ncn1 gave a ΔTm of 1.4 ± 1.1 °C (hp2 hairpin duplex DNA; FRET melting; 1 µM).
For CC(C)(C)c1cc(-c2ccc3cccnc3n2)nc(-c2ccc3cccnc3n2)c1.[Cl-].[Cl-].[Ru+2].c1cnc2c(c1)ccc1cccnc12, the EC50 was 152000 ± 3000 nM (A-375; resazurin; together with: light 633 nm, 20 mW, 100 J/cm2).
For Cc1ncsc1-c1ccc(C(C)NC(=O)C2CC(O)CN2C(=O)C(NC(=O)CCCCCCCCCCN2CCCC(Nc3ncc(Cl)c(Nc4ccccc4S(=O)(=O)C(C)C)n3)C2)C(C)(C)C)cc1 (stereo not shown), “log2 fold change” read -1.6 (22Rv1; RNA-seq, refers to: ZNF518B mRNA; concentration not given; relative to: DMSO).
With COC1OC(C)C(OC2OC(C)C(O)C(OC3OC(C)C(OC4OC(C)C(O)C(OC5OC(C)C(OC6OC(C)C(O)C(OC7OC(C)C(OC8OC(C)C(O)C(OC9OC(C)C(OC%10OC(C)C(O)C(OC%11OC(C)C(O)C(OS(=O)(=O)O)C%11OS(=O)(=O)O)C%10OS(=O)(=O)O)C(OS(=O)(=O)O)C9OS(=O)(=O)O)C8OS(=O)(=O)O)C(OS(=O)(=O)O)C7OS(=O)(=O)O)C6OS(=O)(=O)O)C(OS(=O)(=O)O)C5OS(=O)(=O)O)C4OS(=O)(=O)O)C(OS(=O)(=O)O)C3OS(=O)(=O)O)C2OS(=O)(=O)O)C(OS(=O)(=O)O)C1OS(=O)(=O)O (stereo not shown) the prothrombin time was 15.1 ± 0.2 s (human plasma; 128 µg/mL).
CCC(=O)N1CCN(c2ccc(NC(=O)c3ccc([N+](=O)[O-])o3)cc2Cl)CC1 gave an AC50 of 1000 nM (Mus musculus; gene silencing, high-content imaging; LDR reporter GFP cells; retest run 2).
For C[n+]1cccc2cc(/C=N/NC(=O)c3ccc4ccc(C(=O)N/N=C/c5ccc6c(ccc[n+]6C)c5)nc4n3)ccc21, the ΔTm was 10.4 ± 0.1 °C (MYC parallel G4 DNA; FRET melting; 1 µM, DNA 0.2 µM).
For C=CC(=O)N1[C@H](c2ccc3c(c2)OCO3)c2[nH]c3ccccc3c2C[C@@H]1C(=O)N1CCN(C)CC1, the relative co-enrichment was 101% (human cyclin E1 N112C-3xFLAG:CDK2; co-IP with TMT proteomics, refers to: NPM1; concentration not given, P06748; relative to: wild type DMSO).
COCC/N=C(\S)N/N=C(\C)c1ccccc1O has an Emax of 44% (Mus musculus; gene silencing, high-content imaging; LDR reporter GFP cells; 30 h, retest run 2).
C=CC(=O)Nc1cccc(Cn2ncc3cnc(Nc4cnn(CCOC)c4)nc32)c1: “percent of control” 94% (DAPK1 human; binding, KINOMEscan; 100 nM; lower = stronger binding).
For COC1CN([C@H]2CC[C@H]([C@@]3(C)Oc4c(Cl)cc(C(=O)NCc5c(SC)cc(C)[nH]c5=O)c(C)c4O3)CC2)C1, “log2 fold change” read 1.65 (RNA-seq, refers to: CADM3 mouse homolog; mouse, HT-1376 xenograft, whole blood; dose not given; relative to: vehicle).
O=C(N/N=C/c1ccc2c(ccc[n+]2Cc2ccccc2)c1)N/N=C/c1ccc2c(ccc[n+]2Cc2ccccc2)c1 has a ΔTm of 2.1 ± 0.4 °C (hp2 hairpin duplex DNA; FRET melting; 1 µM).
For Cc1ccc(C(C)C)c(OCc2ccc(C(=O)N/N=C/c3cccc(O)c3O)cc2)c1, the Emax was 41% (Mus musculus; gene silencing, high-content imaging; LDR reporter GFP cells; 30 h, retest run 2).
The ΔTm of O=C(N/N=C/c1cc[n+](CC2CC2)c2ccccc12)c1ccc2ccc3ccc(C(=O)N/N=C/c4cc[n+](CC5CC5)c5ccccc45)nc3c2n1 is reported as 2.2 ± 0.4 °C (hp2 hairpin duplex DNA; FRET melting; 1 µM).
The IC50 of CNS(=O)(=O)Nc1nccc(Cc2c(C)c3ccc(Oc4ncccc4F)cc3oc2=O)c1F is reported as 28.9 nM (NCI-H322; cell viability; 7 days).

Excerpt of the above:
C[n+]1ccc(/C=N/NC(=O)C(=O)N/N=C/c2cc[n+](C)c3ccccc23)c2ccccc21 has a ΔTm of 3.5 ± 0.3 °C (MYC parallel G4 DNA; FRET melting; 1 µM, DNA 0.2 µM, together with: duplex DNA competitor 10 µM).
